Experimental data of several laboratories.
Compare with care: the assays were run in different laboratories.
Target: Ribosomal protein S6 kinase alpha-2 (RPS6KA2, Homo sapiens, UniProt Q15349)
UniProt Q15349, sequence (whole entry, looked up): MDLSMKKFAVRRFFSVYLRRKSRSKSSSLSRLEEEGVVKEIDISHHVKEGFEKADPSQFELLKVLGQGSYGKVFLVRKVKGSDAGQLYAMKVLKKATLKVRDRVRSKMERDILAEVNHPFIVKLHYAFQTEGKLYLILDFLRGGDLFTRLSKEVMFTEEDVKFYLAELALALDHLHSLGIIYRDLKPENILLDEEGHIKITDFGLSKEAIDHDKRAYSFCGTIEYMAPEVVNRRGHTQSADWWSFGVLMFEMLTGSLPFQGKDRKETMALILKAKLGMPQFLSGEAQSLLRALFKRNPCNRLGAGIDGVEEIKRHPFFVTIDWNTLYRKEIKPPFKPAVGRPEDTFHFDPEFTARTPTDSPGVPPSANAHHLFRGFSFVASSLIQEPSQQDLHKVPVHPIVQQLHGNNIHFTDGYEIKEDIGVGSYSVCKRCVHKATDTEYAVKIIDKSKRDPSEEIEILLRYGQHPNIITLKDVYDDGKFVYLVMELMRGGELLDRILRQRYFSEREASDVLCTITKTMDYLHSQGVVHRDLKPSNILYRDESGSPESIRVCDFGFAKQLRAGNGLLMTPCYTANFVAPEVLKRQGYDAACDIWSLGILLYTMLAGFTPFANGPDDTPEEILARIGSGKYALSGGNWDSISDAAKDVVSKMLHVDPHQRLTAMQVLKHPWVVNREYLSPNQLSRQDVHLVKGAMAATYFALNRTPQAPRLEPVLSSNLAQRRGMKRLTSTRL

SMILES	test	test system	setting	scale	quantity	result
COc1cc(F)ccc1-c1ncnc(Nc2cccc(C[S@](C)(=N)=O)c2)n1	kinase activity	–	10 µM, together with: 10 µM ATP	–	remaining activity	97%
Cn1c2c(c3ccc(Cl)c(Cl)c31)C(C#N)C1(CCN(C(=O)OC(C)(C)C)CC1)NC2=O (racemic)	thermal shift	–	10 µM, 2 µM protein	higher = stronger binding	ΔTm	0 °C
CC[C@@H]1[C@H](F)C(=O)N[C@@H]1COc1nccc2cc(C(N)=O)c(OC)cc12	ATP-site probe binding, ActivX profiling, measured: RSK3	THP-1 cell lysate	0.04 mM, Lys2 site	–	inhibition	-7.6%
CN1CC(Oc2cnc(C#N)cc2-c2ccn3nc(NC(=O)C4CC4)cc3c2)C1	inhibitor, KinaseProfiler panel	–	1 µM	–	inhibition	-1%
CC(C)(O)[C@H]1CC[C@H](Nc2ccc3ncc(-c4cccc(C(F)(F)F)c4)n3n2)CC1	enzyme activity, inhibitor	–	1 µM, together with: 10 µM ATP	relative to: DMSO	remaining activity	93.9%
CC/C(=N\NC(=O)NCc1cccc(O)c1)c1ccc(O)c(C)c1O	kinase activity	–	0.1 µM	–	inhibition	39.1%
N#CC1c2c([nH]c3c(Cl)c(Cl)ccc23)C(=O)NC12CCCCC2 (racemic)	thermal shift	–	10 µM, 2 µM protein	higher = stronger binding	ΔTm	0.6 °C
CNc1cccc2cc(C(=O)Nc3ccc(C(=O)O)cc3)c(=O)[nH]c12	kinase activity, inhibitor	–	10 µM	–	inhibition	5.4%
Cc1cc(Nc2cc(N3CCN(C)CC3)nc(Sc3ccc(NC(=O)C4CC4)cc3)n2)[nH]n1	kinase activity, KinaseProfiler	–	0.03 µM, species human	relative to: control	remaining activity	94%
Cn1c2c(c3ccc(Cl)c(Cl)c31)C(C#N)C1(CCCC1)NC2=O (stereo not shown)	thermal shift	–	10 µM, 2 µM protein	higher = stronger binding	ΔTm	0.3 °C

Some of these lines once more:
SMILES	test	test system	setting	scale	quantity	result
CC/C(=N\NC(=O)NCc1cccc(O)c1)c1ccc(O)c(C)c1O	kinase activity	–	0.1 µM	–	inhibition	39.1%
